Experimental data collected from several papers.
Compare with care: the assays were run in different laboratories. ± gives the spread as reported.

| Compound | organism | assay | test system | setting | IC50 |
| --- | --- | --- | --- | --- | --- |
| CC[C@H](C)[C@H](NC(=O)CNC(=O)[C@H](CO)NC(=O)[C@H](CC(C)C)NC(=O)[C@@H](N)Cc1ccccc1)C(=O)N[C@H](C(=O)NCC(=O)N[C@@H](CCSC)C(=O)N[C@@H](CC(C)C)C(=O)NCC(=O)N[C@@H](CCCCN)C(=O)N[C@@H](CC(C)C)C(=O)N[C@@H](Cc1ccccc1)C(N)=O)C(C)C | Leishmania mexicana | trypan blue count | promastigotes |  | 6300 ± 850 nM |
| O=C(NCCNCCO)c1cn(Cc2ccccc2)c2cc(Cl)c(OCc3ccc(Cl)cc3)cc2c1=O | Leishmania donovani |  | Bob promastigotes | 120 h | > 20000 nM |
| COC(=O)C1=CO[C@@H](C)[C@@H]2Cn3ccc4c5ccccc5nc-4c3C[C@H]12 | Plasmodium falciparum | [3H]hypoxanthine incorporation | C2B atovaquone-resistant | 48 h | 1500 nM |
| CC#N.[Cl][Mn-2]([Cl])([Cl])[Cl].[Mn+2].c1ccc(CN2CCCN3CCCN(CCCN(Cc4ccccc4)CC3)CC2)cc1 | Leishmania donovani |  | THP-1-derived macrophages, intracellular amastigotes |  | 1890 nM |
| Cc1cccc2c1NC(=O)C2=Cc1ccc(-c2cccc(C(=O)N3CCCN(C)CC3)c2)o1 (mixture of isomers) | Trichuris muris | adult worm motility |  | 48 h | 14700 nM |
| CCCCCCCCCCCCCCC[C@@H](O)[C@H](CO)NC(=O)NCCCC[C@H](NC(=O)[C@H](CC(N)=O)NC(=O)[C@H](CCCCN)NC(=O)[C@H](CCC(=O)O)NC(=O)[C@H](CCC(N)=O)NC(=O)[C@H](CCC(N)=O)NC(=O)[C@H](CC(N)=O)NC(=O)[C@H](CCC(N)=O)NC(=O)[C@H](CO)NC(=O)[C@H](CCC(=O)O)NC(=O)[C@H](CCC(=O)O)NC(=O)[C@@H](NC(=O)[C@H](CC(C)C)NC(=O)[C@H](CO)NC(=O)[C@H](Cc1c[nH]cn1)NC(=O)[C@@H](NC(=O)[C@H](CC(C)C)NC(=O)[C@H](CO)NC(=O)[C@@H](NC(=O)[C@@H](N)Cc1ccc(O)cc1)[C@@H](C)O)[C@@H](C)CC)[C@@H](C)CC)C(N)=O | HIV-1 HXB2 | viral infectivity, luciferase reporter | TZM-bl |  | 350 ± 60 nM |
| CC(=O)[O-].CN(C)C=O.F[P-](F)(F)(F)(F)F.[Co+2].c1ccc(CN2CCN3CCCN(CC2)CCN(Cc2ccccc2)CC3)cc1 | Leishmania donovani | parasite growth, resazurin |  | 72 h, amastigote | > 10000 nM |
| O=C(C1CCN(c2nnnn2-c2ccccc2)CC1)N1CCCc2ccccc21 | Plasmodium falciparum | [3H]hypoxanthine incorporation | Dd2 | 72 h | 900 nM |
| F[P-](F)(F)(F)(F)F.F[P-](F)(F)(F)(F)F.[Cu+2].c1ccc(CN2CCCNCCN(Cc3ccccc3)CCCNCC2)cc1 | Leishmania donovani | parasite growth, resazurin |  | 72 h, amastigote | > 15000 nM |
| CC(C)[C@@H]1NC(=O)[C@H](CCCNC(=N)N)NC(=O)[C@H](Cc2ccccc2)NC(=O)[C@H](CO)NC(=O)[C@@H](NC(=O)CCCCCNC(=O)CCCCCNC(=O)[C@H](CCCNC(=N)N)NC(=O)CCCCCNC(=O)[C@H](CCCNC(=N)N)NC(=O)CCCCCNC(=O)[C@H](CCCNC(=N)N)NC(=O)CCCCCNC(=O)[C@H](CCCNC(=N)N)NC(=O)CCCCCNC(=O)[C@H](CCCNC(=N)N)NC(=O)CCCCCNC(=O)[C@H](CCCNC(=N)N)NC(=O)CCCCCNC(=O)[C@@H](N)CCCNC(=N)N)CSSC[C@@H](C(N)=O)NC(=O)[C@@H]2CCCN2C(=O)[C@H](Cc2ccc(O)cc2)NC(=O)[C@H](CCC(=O)O)NC(=O)[C@H](Cc2c[nH]cn2)NC(=O)[C@H](CC2CCCCC2)NC(=O)[C@H]2CCCN2C1=O | hepatitis C virus | viral replication, Renilla luciferase reporter | Huh7.5 | 48 h | 0.452 nM |

A few entries again:
| Compound | organism | assay | test system | setting | IC50 |
| --- | --- | --- | --- | --- | --- |
| F[P-](F)(F)(F)(F)F.F[P-](F)(F)(F)(F)F.[Cu+2].c1ccc(CN2CCCNCCN(Cc3ccccc3)CCCNCC2)cc1 | Leishmania donovani | parasite growth, resazurin |  | 72 h, amastigote | > 15000 nM |
